Published values of several laboratories.
Parts stem from different laboratories: compare values within a part only. Changes are numbered by the printed parent chain.

Block 1
Target: CCNB3, cyclin fold, Cln2 fusion (human)
Method: yeast growth competition, sequencing
Matrix: yeast
Notes: strong parent motif
Reference: not given
Direction: higher = stronger binding
Parent: viral docking peptide; YKVKRRLVFGADD; partner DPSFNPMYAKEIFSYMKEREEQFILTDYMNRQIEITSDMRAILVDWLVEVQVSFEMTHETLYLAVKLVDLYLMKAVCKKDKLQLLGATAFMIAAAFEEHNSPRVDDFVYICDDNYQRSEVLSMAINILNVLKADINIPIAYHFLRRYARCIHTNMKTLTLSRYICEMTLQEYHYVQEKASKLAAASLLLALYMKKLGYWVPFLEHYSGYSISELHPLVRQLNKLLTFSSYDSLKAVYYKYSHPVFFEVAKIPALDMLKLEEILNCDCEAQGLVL
Variant | normalised enrichment score
V8L | 1.28
R5D | 0.0697
V8C | 1.46
D12P | 1.82
R5H | 0.14
K4H | 0.143
L7I | 0.329
G10A | 1.24
G10C | 1.76
Y1A | 0.903
R6P | 0.103
V3R | -0.0102
V3Q | 0.323
F9S | -0.0891
F9P | -0.139
V3E | -0.0399
K2L | 2.24

Block 2
Target: Centromere-binding protein 1, full length, N-terminal tag (CBF1, Saccharomyces cerevisiae, UniProt P17106, residues 1-351)
Sequence of UniProt P17106 (whole entry, looked up): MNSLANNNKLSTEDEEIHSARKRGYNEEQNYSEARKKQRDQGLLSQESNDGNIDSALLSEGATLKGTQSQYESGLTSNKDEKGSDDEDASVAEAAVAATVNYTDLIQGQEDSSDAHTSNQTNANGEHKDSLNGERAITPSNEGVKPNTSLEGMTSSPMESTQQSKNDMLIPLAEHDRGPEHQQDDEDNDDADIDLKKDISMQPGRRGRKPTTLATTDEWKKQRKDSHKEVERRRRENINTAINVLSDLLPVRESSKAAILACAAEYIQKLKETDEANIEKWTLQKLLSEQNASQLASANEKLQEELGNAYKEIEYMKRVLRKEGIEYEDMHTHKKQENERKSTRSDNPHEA
Method: protein-binding microarray
Molecule type: double-stranded DNA, one strand shown
Matrix: in vitro
Concentration: 0.8 µM
Notes: whole 60-bp probe, no competitor
Direction: higher = stronger binding
Constant ends, left off below: … GTCTTGATTCGCTTGACGCTGCTG
Oligonucleotide | fluorescence intensity [a.u.]
CTAAATAAATAACACGTGCTCATAAAAAATCAATTC | 16800
GAAAATATCAAACGTGTTGTATTACGGGCTCGATAG | 579
CCTAACTACTATATTTACGTGTCATAGCTTCGTACA | 487
CTATGCGCCGGGTGATGCGTGACGCGTTTTTGGTTC | 978
CTATTGTATCAGGCTAACGTGCACTTGGAAGGTTTC | 580
CTAAAGTCCATCCTTCACATGACTTGAATCCCTTTC | 1570
GAAACAGAGATTTTGAGCGTGATATTATTCCAATAG | 596
CTACGCTGTCAGCATCACCCTCACCTAAAGTGTTTC | 508

Block 3
Target: Sal-like protein 4, full length isoform A (SALL4, Homo sapiens, UniProt Q9UJQ4, residues 1-1053)
Sequence of UniProt Q9UJQ4 (whole entry, looked up): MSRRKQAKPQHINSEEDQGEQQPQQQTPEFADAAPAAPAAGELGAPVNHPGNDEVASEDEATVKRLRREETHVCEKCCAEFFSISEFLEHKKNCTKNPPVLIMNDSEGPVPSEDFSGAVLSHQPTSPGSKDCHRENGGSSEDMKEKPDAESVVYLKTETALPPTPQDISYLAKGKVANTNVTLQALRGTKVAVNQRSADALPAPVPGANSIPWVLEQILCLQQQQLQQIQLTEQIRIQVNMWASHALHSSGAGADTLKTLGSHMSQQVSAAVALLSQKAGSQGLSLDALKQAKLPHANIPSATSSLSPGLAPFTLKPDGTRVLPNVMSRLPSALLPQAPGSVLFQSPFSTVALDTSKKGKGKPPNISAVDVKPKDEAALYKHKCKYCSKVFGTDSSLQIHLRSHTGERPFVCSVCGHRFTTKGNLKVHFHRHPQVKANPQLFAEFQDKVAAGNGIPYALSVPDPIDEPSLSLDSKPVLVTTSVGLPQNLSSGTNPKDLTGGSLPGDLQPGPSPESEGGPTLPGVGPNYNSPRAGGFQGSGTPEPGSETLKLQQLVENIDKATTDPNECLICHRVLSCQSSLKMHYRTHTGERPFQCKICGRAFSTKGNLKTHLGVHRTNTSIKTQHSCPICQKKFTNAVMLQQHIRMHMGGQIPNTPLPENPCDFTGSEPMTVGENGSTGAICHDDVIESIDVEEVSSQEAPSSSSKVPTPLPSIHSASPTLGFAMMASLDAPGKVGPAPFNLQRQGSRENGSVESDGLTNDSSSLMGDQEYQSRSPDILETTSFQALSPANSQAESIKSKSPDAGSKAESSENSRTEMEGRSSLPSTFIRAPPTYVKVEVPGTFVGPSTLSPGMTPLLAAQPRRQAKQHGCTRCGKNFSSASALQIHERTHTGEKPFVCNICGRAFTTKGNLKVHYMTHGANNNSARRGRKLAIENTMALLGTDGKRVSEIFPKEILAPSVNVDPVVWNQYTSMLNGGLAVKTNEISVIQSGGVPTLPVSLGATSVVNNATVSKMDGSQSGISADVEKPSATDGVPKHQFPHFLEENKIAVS
Method: universal PBM
Molecule type: double-stranded DNA, one strand shown
Matrix: in vitro
Concentration: 600 nM
Notes: 8-mer, flanks averaged, mean of replicates
Direction: higher = stronger binding
Oligonucleotide | E-score
TCACGTAA | 0.168
AGACGTCG | -0.166
CGCACTAC | -0.178
TAGCTATA | 0.261
ATCTCGGG | -0.256
ATCCACCA | 0.0517
AAGTTAAT | 0.287
ATGGCTCA | -0.0664

Block 4
Target: HLA class I histocompatibility antigen, A alpha chain, allele A*25:01 (Homo sapiens, UniProt P04439)
Read-out: peptide-MHC binding
Molecule type: peptide
Concentration: concentration not given
Sequence | binding
LAIVTTPLV | inactive
STYQFSLMQ | inactive
FRYEFTAPF | inactive
